Published values collected from several papers.
Protocols differ between the studies behind these lines. Values joined by “and” are separate records of one study, mostly repeats; a detail may differ. Numbers after ± are the reported error.
Sequence of UniProt P41743 (whole entry, looked up): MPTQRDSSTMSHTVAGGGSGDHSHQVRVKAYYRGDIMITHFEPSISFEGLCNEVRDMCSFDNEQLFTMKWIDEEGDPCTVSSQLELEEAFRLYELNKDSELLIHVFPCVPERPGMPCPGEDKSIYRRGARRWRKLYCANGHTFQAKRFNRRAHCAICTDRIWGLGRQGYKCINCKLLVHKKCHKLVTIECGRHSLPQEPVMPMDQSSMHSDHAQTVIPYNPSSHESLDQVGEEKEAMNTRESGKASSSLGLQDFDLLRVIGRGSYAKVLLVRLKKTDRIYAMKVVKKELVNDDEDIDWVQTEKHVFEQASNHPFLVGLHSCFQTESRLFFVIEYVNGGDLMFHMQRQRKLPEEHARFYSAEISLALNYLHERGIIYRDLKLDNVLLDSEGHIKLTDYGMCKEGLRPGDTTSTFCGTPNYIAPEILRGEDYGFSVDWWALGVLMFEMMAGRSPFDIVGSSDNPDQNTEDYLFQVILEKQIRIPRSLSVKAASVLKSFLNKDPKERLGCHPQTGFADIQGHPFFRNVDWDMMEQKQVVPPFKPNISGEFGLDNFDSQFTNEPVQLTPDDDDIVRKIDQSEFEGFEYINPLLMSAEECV
Sequence of UniProt Q12852 (whole entry, looked up): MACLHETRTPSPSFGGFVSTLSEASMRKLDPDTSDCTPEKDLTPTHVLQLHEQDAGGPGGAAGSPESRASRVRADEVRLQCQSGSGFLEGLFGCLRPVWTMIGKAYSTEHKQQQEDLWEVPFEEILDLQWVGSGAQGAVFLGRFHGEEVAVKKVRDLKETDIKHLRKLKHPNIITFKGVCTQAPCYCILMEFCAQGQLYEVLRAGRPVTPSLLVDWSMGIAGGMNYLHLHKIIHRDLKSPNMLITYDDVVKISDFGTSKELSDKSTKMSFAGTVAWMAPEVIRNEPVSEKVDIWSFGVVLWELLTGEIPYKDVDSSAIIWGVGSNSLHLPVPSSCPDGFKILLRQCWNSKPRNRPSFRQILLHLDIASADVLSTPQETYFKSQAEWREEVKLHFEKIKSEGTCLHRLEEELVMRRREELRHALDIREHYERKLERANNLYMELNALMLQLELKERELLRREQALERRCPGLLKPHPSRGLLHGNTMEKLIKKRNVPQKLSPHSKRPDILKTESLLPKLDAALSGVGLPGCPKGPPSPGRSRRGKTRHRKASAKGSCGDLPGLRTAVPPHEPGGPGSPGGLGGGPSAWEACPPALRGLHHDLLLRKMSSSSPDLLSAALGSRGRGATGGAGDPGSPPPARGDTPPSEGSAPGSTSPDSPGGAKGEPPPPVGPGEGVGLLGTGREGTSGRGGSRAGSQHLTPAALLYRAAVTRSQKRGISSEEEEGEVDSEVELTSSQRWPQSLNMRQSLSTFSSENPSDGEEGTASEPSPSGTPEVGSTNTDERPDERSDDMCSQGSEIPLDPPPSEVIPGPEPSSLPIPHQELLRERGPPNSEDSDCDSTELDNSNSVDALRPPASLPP
Sequence of UniProt Q13164 (whole entry, looked up): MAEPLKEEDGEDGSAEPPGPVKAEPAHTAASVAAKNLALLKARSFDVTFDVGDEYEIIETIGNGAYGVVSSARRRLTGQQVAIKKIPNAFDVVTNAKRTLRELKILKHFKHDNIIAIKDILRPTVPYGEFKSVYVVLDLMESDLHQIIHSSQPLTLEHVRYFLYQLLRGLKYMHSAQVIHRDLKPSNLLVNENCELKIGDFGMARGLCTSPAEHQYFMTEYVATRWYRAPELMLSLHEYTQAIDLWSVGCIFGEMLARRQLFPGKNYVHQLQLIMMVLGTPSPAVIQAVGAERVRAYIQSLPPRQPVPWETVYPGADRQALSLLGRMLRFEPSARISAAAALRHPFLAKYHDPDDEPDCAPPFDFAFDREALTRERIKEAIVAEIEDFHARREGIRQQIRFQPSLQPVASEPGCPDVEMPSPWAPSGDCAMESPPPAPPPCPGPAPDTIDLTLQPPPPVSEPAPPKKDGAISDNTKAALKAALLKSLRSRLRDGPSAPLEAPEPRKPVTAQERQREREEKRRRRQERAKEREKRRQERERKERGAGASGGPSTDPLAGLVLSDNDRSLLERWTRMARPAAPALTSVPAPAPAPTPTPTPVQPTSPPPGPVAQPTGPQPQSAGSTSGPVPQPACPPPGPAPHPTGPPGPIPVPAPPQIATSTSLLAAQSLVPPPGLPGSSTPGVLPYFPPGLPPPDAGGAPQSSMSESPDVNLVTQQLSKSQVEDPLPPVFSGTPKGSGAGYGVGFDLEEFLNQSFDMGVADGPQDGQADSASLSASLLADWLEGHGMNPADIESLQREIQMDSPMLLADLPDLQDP

SMILES = C=Cc1c(C)c2cc3nc(c(CC(=O)O)c4[nH]c(cc5nc(cc1[nH]2)C(C)=C5CC)c(C)c4C(=O)O)[C@@H](CCC(=O)NCCCC[C@H](NC(C)=O)C(=O)N[C@@H](Cc1ccccc1)C(=O)N[C@@H](Cc1ccccc1)C(=O)N[C@H](C(=O)N[C@@H](CC(C)C)C(=O)N[C@@H](CCCCN)C(=O)N[C@@H](CO)C(=O)NCC(=O)N[C@@H](CCC(N)=O)C(=O)N[C@@H](Cc1ccc(O)cc1)C(=O)N[C@@H](C)C(=O)N[C@@H](CO)C(=O)N[C@@H](Cc1ccc(O)cc1)C(=O)N[C@@H](Cc1c[nH]cn1)C(=O)N[C@@H](CS)C(=O)N[C@@H](Cc1c[nH]c2ccccc12)C(=O)N[C@@H](CS)C(=O)N[C@@H](Cc1c[nH]c2ccccc12)C(=O)N[C@@H](CCCNC(=N)N)C(=O)N[C@@H](CC(=O)O)C(=O)N1CCC[C@H]1C(=O)NCC(=O)N[C@@H](CCCNC(=N)N)C(=O)N[C@@H](CO)C(=O)NCC(=O)NCC(=O)N[C@@H](CO)C(=O)N[C@@H](CCCCN)C(N)=O)C(C)C)[C@@H]3C; system = mouse, blood; conditions = 24 h; endpoint = blood concentration; result = 42.8 µg/mL and 53.6 µg/mL
SMILES = CCCCCCCCCCCC(=O)C(C)C(=O)N1CCC[C@H]1C(=O)NC(C)(C)C(=O)NC(C)(C)C(=O)NC(C)(C)C(=O)N[C@](C)(CC)C(=O)NCCC(=O)N[C@@H](C)C(=O)N[C@](C)(CC)C(=O)N[C@@H](C)C(=O)N[C@@H](CC(C)C)C(=O)N[C@](C)(CC)C(=O)NCCC(=O)N[C@@H](C)C(=O)N[C@](C)(CC)C(=O)NCCC(=O)N[C@@H](C)C(=O)NC(C)(C)C(=O)NC(C)(C)C(=O)NC(C)(C)C(=O)N[C@@H](C)C(=O)N[C@@H](CC(=O)O)C(=O)O (stereo partly drawn); assay = LC-MS; system = buffer with trypsin; conditions = 40 µM, 30 min, pH 7.5, 37 °C; scale = baseline: 0 h; endpoint = remaining intact peptide; result = 98.8% and 88.1% and 75.3%
SMILES = CS(C)(=O)=Nc1ccc(-c2ccc(-c3nc4cc(O[C@@H]5CO[C@H]6[C@@H]5OC[C@H]6O)[nH]c4cc3F)cc2)cc1; target or system = Protein kinase C iota type (PRKCI, Homo sapiens, UniProt P41743); assay = enzyme activity, inhibitor; conditions = 10 µM; endpoint = inhibition; result = -2%
SMILES = O=C1NC2(CC2)COc2ncc(F)cc2[C@H]2COCCN2c2ccn3ncc1c3n2; system = Sprague-Dawley rat, female, blood; conditions = oral, 10 mg/kg/day, 4 weeks, end of treatment, subacute toxicity; endpoint = mean corpuscular haemoglobin; result = 20.2 ± 0.6 pg
SMILES = CC(C)[C@H]1NC(=O)C[C@H]2/C=C/CCSSC[C@@H](NC1=O)C(=O)N[C@H](Cc1cccc3ccccc13)C(=O)NCC(=O)O2; target or system = Mitogen-activated protein kinase kinase kinase 12 (MAP3K12, Homo sapiens, UniProt Q12852); assay = enzyme activity, inhibitor; conditions = 10 µM; endpoint = inhibition; result = 9.3%
SMILES = CCN(CC)CCOc1ccc(-c2nnn(Cc3ccc(OC)cc3)c2N)cc1; assay = metabolic stability; system = mouse, liver microsomes; endpoint = half-life; result = 1.4 h
SMILES = COc1ccccc1-c1n[nH]c2nc(NC3CCN(C(=O)Cc4ccc(F)cc4F)CC3)ncc12; assay = bead binding, competition bead pull-down, item: LINJ.32.3110; system = Leishmania donovani extract; conditions = 10 µM; scale = baseline: vehicle; endpoint = relative abundance; result = 0.82
SMILES = C#CCCCNC(=O)CC(Cc1ccc(F)cc1)NC(=O)C(Cc1ccc(Cl)cc1Cl)NC(=O)C(N)Cc1ccccc1C#N (stereo not drawn); system = CD-1 mouse, liver microsomes; conditions = 1 µM, time not given, epoxide hydrolase conditions; endpoint = remaining compound; result = 57%
SMILES = [2H]C([2H])([18F])[C@]([2H])(N)C(=O)O; assay = radio-HPLC; system = saline formulation; conditions = up to 3 h; endpoint = radiochemical purity; result = > 98%
SMILES = CC(C)(C)C(=O)OCOP(=O)(OCOC(=O)C(C)(C)C)C1CCCN(O)C1=O (stereo not drawn); target or system = HOP-92; endpoint = log LC50; result = > -4 log M
SMILES = C=Cc1c(C)c2cc3nc(c(CC(=O)[O-])c4[n-]c(cc5nc(cc1[n-]2)C(C)=C5CC)c(C)c4C(=O)[O-])C(CCC(=O)[O-])C3C.[Cu+2].[Na+].[Na+].[Na+] (stereo not drawn); system = Wistar rat, male; conditions = oral, 1000 mg/kg daily, 28 days; endpoint = serum creatinine; result = 0.37 ± 0.05 mg/dL
SMILES = CSc1nc2[nH]nc([N+](=O)[O-])c(=O)n2n1; system = plasma; endpoint = fraction unbound; result = 0.05
SMILES = CC[C@H](C)[C@H](NC(=O)[C@H](CCCNC(=N)N)NC(=O)[C@H](CCCCN)NC(=O)[C@H](Cc1ccc(O)cc1)NC(=O)[C@H](CC(=O)O)NC(=O)[C@H](C)NC(=O)CNC(=O)CCOCCOCCOCCNC(=O)CN1CCN(CC(=O)O)CCN(CC(=O)O)CCN(CC(=O)O)CC1)C(=O)N[C@H](C(=O)N[C@H](C(=O)N[C@@H](CCCCN)C(=O)N[C@H](C(=O)N[C@@H](CC(N)=O)C(N)=O)C(C)C)C(C)C)[C@@H](C)O [copper-64 labelled]; assay = ex vivo gamma counting; system = C57BL/6J male mice, B16-F10 tumour, lung; conditions = intravenous, 1.85 MBq, 40 min; endpoint = tissue uptake; result = 2.21 ± 0.038 %ID/g
SMILES = CN(C)[C@H]1C[C@@]23CC[C@@]4(O2)C(=CC[C@]2(C)[C@@H](c5ccc6ccncc6c5)CC[C@H]24)C=C3[C@@H](O)[C@@H]1O; target or system = Mitogen-activated protein kinase 7 (MAPK7, Homo sapiens, UniProt Q13164); assay = ATP probe labelling, inhibitor, KiNativ profiling; conditions = 1 µM; endpoint = inhibition; result = 1.8%
SMILES = CC(C)[C@@H]1NC(=O)CNC(=O)[C@H](CC(N)=O)NC(=O)[C@H](CCCNC(=N)N)NC(=O)[C@H](Cc2ccc(O)cc2)NC(=O)[C@H](C(C)C)NC(=O)[C@@H](NC(=O)[C@@H](NC(=O)[C@H](CC(N)=O)NC(=O)[C@H](Cc2c[nH]c3ccccc23)NC(=O)[C@H](C)NC(=O)[C@H](Cc2ccccc2)NC(=O)CNC(=O)[C@H](CCCCN)NC(=O)[C@H](Cc2ccccc2)NC(=O)[C@H](Cc2ccccc2)NC(=O)[C@H](CCCCN)NC(=O)OCC2c3ccccc3-c3ccccc32)C(C)C)CSSC[C@@H](C(=O)N[C@@H](Cc2c[nH]cn2)C(=O)N[C@@H](CCCNC(=N)N)C(=O)N[C@@H](CCCNC(=N)N)C(=O)N[C@@H](C)C(=O)N[C@@H](CC(N)=O)C(N)=O)NC(=O)[C@H](C(C)C)NC(=O)[C@H](CCCNC(=N)N)NC1=O; system = ICR mouse, blood; conditions = intramammary, 5 mg/kg, day 5, 3 d dosing; endpoint = ALT; result = 47.6 ± 2.8 IU/L
SMILES = CC1COC2=C1C(=O)C(=O)c1c2ccc2c1C(OC(=O)CNC(=O)CN)CCC2(C)C (mixture of isomers); system = saline; conditions = 24 h, 25 °C; endpoint = equilibrium solubility; result = 0.209 mg/mL
SMILES = Cc1cc(C(=O)Nc2nc3cccc(C)c3n2[C@H]2CCCCN(C(=O)/C=C/CN(C)C)C2)ccn1; target or system = Trypanosoma brucei; assay = propidium iodide flow cytometry; system = bloodstream form; conditions = concentration not given, 24 h; endpoint = cells in G1 phase; result = 35.2%
SMILES = CCCCCCCCCCCCCCCC(=O)N[C@@H](CCC(=O)NCCOCCOCCC(=O)NCCOCCOCCC(=O)NCCCC[C@H](NC(=O)[C@H](CC(=O)O)NC(=O)[C@H](CC(C)C)NC(=O)[C@H](Cc1ccc(O)cc1)NC(=O)[C@H](CCCCN)NC(=O)[C@H](CO)NC(=O)[C@H](Cc1ccc(O)cc1)NC(=O)[C@H](CC(=O)O)NC(=O)[C@H](CO)NC(=O)[C@@H](NC(=O)[C@H](Cc1ccccc1)NC(=O)[C@@H](NC(=O)CNC(=O)[C@H](CCC(N)=O)NC(=O)[C@@H](CO)NC(=O)[C@@H](N)Cc1c[nH]cn1)[C@@H](C)O)[C@@H](C)O)C(=O)N[C@@H](CCCNC(=N)N)C(=O)N[C@@H](CCCNC(=N)N)C(=O)N[C@@H](C)C(=O)N[C@@H](CCC(N)=O)C(=O)N[C@@H](CC(=O)O)C(=O)N[C@@H](Cc1ccccc1)C(=O)N[C@H](C(=O)N[C@@H](CCC(N)=O)C(=O)N[C@@H](Cc1c[nH]c2ccccc12)C(=O)N[C@@H](CC(C)C)C(=O)N[C@@H](CC(C)C)C(=O)N[C@@H](CC(N)=O)C(=O)N[C@H](C(=O)NCC(=O)NCC(=O)N1CCC[C@H]1C(=O)N[C@@H](CO)C(=O)N[C@@H](CO)C(=O)NCC(=O)N[C@@H](C)C(=O)N1CCC[C@H]1C(=O)N1CCC[C@H]1C(=O)N1CCC[C@H]1C(=O)N[C@@H](CO)C(N)=O)[C@@H](C)O)C(C)C)C(=O)O; system = rhesus monkey, female; conditions = subcutaneous, 60 µg/kg once daily, 28 days; endpoint = total cholesterol; result = 2.74 ± 0.54 mmol/L

A few entries again:
SMILES = CCN(CC)CCOc1ccc(-c2nnn(Cc3ccc(OC)cc3)c2N)cc1; assay = metabolic stability; system = mouse, liver microsomes; endpoint = half-life; result = 1.4 h
SMILES = Cc1cc(C(=O)Nc2nc3cccc(C)c3n2[C@H]2CCCCN(C(=O)/C=C/CN(C)C)C2)ccn1; target or system = Trypanosoma brucei; assay = propidium iodide flow cytometry; system = bloodstream form; conditions = concentration not given, 24 h; endpoint = cells in G1 phase; result = 35.2%
